Experimental data from different studies.
Each numbered part is a random draw from the data of one study; scales do not carry over between parts. Substitutions count along the parent as printed.

Sample 1 — target: CRIPT, C-terminal peptide; technique: DHFR complementation, deep sequencing; matrix: yeast; baseline: wild type; reading: higher = weaker binding; quantity: binding free energy change
Notes: single substitutions, model-inferred values
Starting sequence: ERBIN, PDZ domain 1 (human); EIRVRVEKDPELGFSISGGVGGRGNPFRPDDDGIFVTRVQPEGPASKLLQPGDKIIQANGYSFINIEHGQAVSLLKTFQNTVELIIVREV; partner TKNYKQTSV
Q79K: -0.0439 kcal/mol
H68K: 1.5 kcal/mol
S62N: 0.148 kcal/mol
F27M: 1.1 kcal/mol
V20F: -0.0973 kcal/mol
S15E: 1.26 kcal/mol
L75A: 0.628 kcal/mol
L84F: -0.496 kcal/mol
N65M: 0.12 kcal/mol
D9Q: -0.0565 kcal/mol
L12K: 1.47 kcal/mol
I56T: 0.106 kcal/mol

Sample 2 — technique: RNA Bind-n-Seq; molecule type: RNA; matrix: in vitro; tested at: not given; notes: RNA with constant flanks, ends assumed; baseline: input RNA pool; reading: higher = stronger binding; quantity: bound/input enrichment
Target: RING finger protein unkempt homolog, zinc fingers 1-6, GST-SBP tag (UNK, Homo sapiens, UniProt Q9C0B0, residues 30-357)
Target sequence (chain): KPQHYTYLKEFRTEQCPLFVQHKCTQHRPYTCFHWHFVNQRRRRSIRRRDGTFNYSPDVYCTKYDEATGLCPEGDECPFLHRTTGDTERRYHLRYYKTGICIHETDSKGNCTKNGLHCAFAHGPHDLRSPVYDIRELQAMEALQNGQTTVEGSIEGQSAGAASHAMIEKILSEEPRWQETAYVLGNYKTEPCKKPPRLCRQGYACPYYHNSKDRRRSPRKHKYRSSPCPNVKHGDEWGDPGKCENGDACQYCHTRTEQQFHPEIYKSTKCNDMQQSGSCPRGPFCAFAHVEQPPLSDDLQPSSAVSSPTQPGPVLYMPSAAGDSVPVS
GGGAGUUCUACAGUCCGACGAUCGCUUAUAAAAUCAAAUAUCCAGAGAACUUCUUUCUCUUAAGAGGAAACCAUGAGUGUGCCCGCAUCAAUCGCAUUUAUGGAUUCUAUGAUGAAUGCAAACGAAGAUUUAAUAUUAAAUUGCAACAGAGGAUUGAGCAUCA: 0.251 ratio
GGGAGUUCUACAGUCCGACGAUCCUUGGCCAGCUCCACCACUGUCAGGUUCUCCAGUUCUGACUGGGGUUGUGGUGAUGGCGGCCGGUGGGAAGAUCCACCCUGGCUCAGGAGCCUGACUUGACACUGGUUCUUUCAGCCCUACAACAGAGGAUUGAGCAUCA: 0.0855 ratio
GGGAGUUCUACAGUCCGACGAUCUCCUCCUGCCUCUGCCUCCUGAGUGCUUCAUUAAAGGCUAUGCCACUACACCUGGGAACACCGUUUCUAAGAAAGCUUCUUGUCUUUUCAUUUGGCAGGUAUCAUGUUCAUUUGUUGUUUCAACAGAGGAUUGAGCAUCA: 0.199 ratio
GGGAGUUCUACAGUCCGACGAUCAGUAGCUCCGCCUGAAGAACUGUUUGCCAAUUCUGCUGAAGGAGAAUUCAGUGCACUCUGCCGCUAUCUAUCUUUACCCACAAAUUUGUUCCUGCUUUUCCAGGAAUAUUGGGAUACCAUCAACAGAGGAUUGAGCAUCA: 0.304 ratio
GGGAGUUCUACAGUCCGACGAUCGAUGUGGCAUGGUUCCUGACGGAAACUUCCCCCUUCAUGUGGUCGAAUCUGGGCAUUGGCCCCGCAAUUUCUCUGUCUGUGGUUGGAGCAGCCUGGGGAAUCUAUAUAACCGGCUCAUCCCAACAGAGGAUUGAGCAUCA: 0.0809 ratio
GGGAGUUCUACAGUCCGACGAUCCUGCAUUAUUUGACCAGAGUUGAAGUGACAGAAUUUGAAGAUAUUAAAUCAGGUUACAGAACCGAUUUUUAUUUUGAUGAAAAUCCUUACUUUGAAAAUAAAGUUCUCUCCAAAGAAUUUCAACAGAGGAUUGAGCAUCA: 0.116 ratio
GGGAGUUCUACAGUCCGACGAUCCCAGGCAGAGGAGAUAUGGAACAGAAUGACUCUGACAACCGUAGAAUAAUUCGCUAUCCAGACCGUCAUCAACUUUUUGUUGGUAACUUGCCACAUGAUAUUGAUGAAAAUGAGCUAAAGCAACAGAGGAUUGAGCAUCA: 0.558 ratio
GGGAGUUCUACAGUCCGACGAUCAAGGUGCCCUUAUUGCUUCCAAAUGUUUCUGCUUUGGAAUCUCAAAUAGAAAUGGGCAACACCGUUAAACCCAAAGUACUUACGAAAGAAGCAGAGGAAAAACUUCCUUCUGAUACAGAGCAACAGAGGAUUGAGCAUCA: 0.155 ratio

Sample 3 — technique: RNA Bind-n-Seq; molecule type: RNA; matrix: in vitro; tested at: 365 nM; baseline: no-protein control; reading: higher = stronger binding; quantity: RBNS enrichment (R)
Target: RNA binding protein fox-1 homolog 2, RRM domain, GST-SBP tag (RBFOX2, Homo sapiens, UniProt O43251-10, residues 100-194)
Notes: natural RNA segment, single round, ends assumed
Target sequence (chain): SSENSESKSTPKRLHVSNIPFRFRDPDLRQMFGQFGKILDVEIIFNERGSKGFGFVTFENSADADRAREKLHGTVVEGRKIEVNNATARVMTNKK
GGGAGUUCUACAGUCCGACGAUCCAGCUAUCAGGUGCUAUGUAACUCCCUAGUGCUCUUACAUAGUUUUAUUUGCAGGACUAGAAUAAAAAGUUUAAACAUUACAGUAUUUCUGAGCAAACAAAUGUGCUCCAUGGAAUUCUCGGGUGCCAA: 0.822
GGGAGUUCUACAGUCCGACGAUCGUUCCAUUCUUGGCAUCUACUCUGGACCAAGGAGCAUCCCUAAUUCUUCAUAGGGACCUUUAAAAAGCAGGAAAUACCAACUGAAGUCAAUUUGGGGGACAUGCUAAAUAUGGAAUUCUCGGGUGCCAA: 0.337
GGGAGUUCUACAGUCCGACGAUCGGAGGCCAAGGUCAGAAAGAUGCCCCGAGAAGCUCCAGCUUUGCUUUCUGCCCAGCCCAUCUUGCCUGCAUGGUGCCUCUGGGUCUUUAAAGGAGGGUGGUAGGUACCAAUGGAAUUCUCGGGUGCCAA: 6.43
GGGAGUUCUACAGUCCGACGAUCUGUAGACUAGAGGAGAGGCUAGAGAGCAUGUGCUGCGGGGCCUAAUUAUAGGUCCUCACUCUUGACAGGGCUGAGCAAACAGAAACUGUCCACCAGUGAUCUCAAGCAUGUGGAAUUCUCGGGUGCCAA: 3.09
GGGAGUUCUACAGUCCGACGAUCUAAAAAUAAAAUGGCAAUUUUAGCACAAUGUUAAGAAAAUGCCCUACUUCAUUACCGCACUUUCUUGUAUUAAUAGUAUCUUAAAGCUGUUUUUAUUUUUCUUAGAAAUGUGGAAUUCUCGGGUGCCAA: 0.304
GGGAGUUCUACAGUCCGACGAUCUUAAACAGCGUUUCUUCAUUGCCUGUGUAUGAGAAAAACUUGGAAGUGUGCCUGUGUAUAUAACUCUGUAAAGACACUGAAAAUUAUACUAACUUAUUUAUGUUAAAAAGUGGAAUUCUCGGGUGCCAA: 4.78
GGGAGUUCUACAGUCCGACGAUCCCUGAGUGCAGAGUGUGUCCAUCUCGGCGUAUGGUGAAGGUGUCACUGGGUUCUGCAGCACUGGAGUUUCCAUGACCGCUCCCACAUCACCCCACCCUCGACUCUGGCACUGGAAUUCUCGGGUGCCAA: 0.395
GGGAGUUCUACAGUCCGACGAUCCGUUGGUGAAGAACACACAUCGAUUCUGCACCUGGGGACCCAGAGCGAGAUGGGUUUGUUCGGUGCCAGCCGACCAAGAUUGACUAGUUUGUUGGACUUAAACGACGAUUUGGAAUUCUCGGGUGCCAA: 0.403

Single results of other studies
PhoQ, residues 284 288 289 292 302 303 SSTLSG
fold induction (PhoP, residues 12 14 15 18 19 IQFRS (Escherichia coli, UniProt P23836); Sort-seq, measured: YFP reporter; E. coli; PhoQ-PhoP variant library, with: 10 µM Mg2+; baseline: high Mg2+ state, higher = stronger signaling): 19.6

For quick reference, copied from above (sample 3):
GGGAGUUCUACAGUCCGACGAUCUUAAACAGCGUUUCUUCAUUGCCUGUGUAUGAGAAAAACUUGGAAGUGUGCCUGUGUAUAUAACUCUGUAAAGACACUGAAAAUUAUACUAACUUAUUUAUGUUAAAAAGUGGAAUUCUCGGGUGCCAA: 4.78
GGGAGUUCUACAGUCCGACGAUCCCUGAGUGCAGAGUGUGUCCAUCUCGGCGUAUGGUGAAGGUGUCACUGGGUUCUGCAGCACUGGAGUUUCCAUGACCGCUCCCACAUCACCCCACCCUCGACUCUGGCACUGGAAUUCUCGGGUGCCAA: 0.395
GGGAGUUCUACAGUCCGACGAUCCGUUGGUGAAGAACACACAUCGAUUCUGCACCUGGGGACCCAGAGCGAGAUGGGUUUGUUCGGUGCCAGCCGACCAAGAUUGACUAGUUUGUUGGACUUAAACGACGAUUUGGAAUUCUCGGGUGCCAA: 0.403
